{"data": "Results collected from several papers", "note": "A part holds a random share of what one study measured. Changes are numbered by the printed parent chain."}
{"data": "Study 1", "target": "Histone acetyltransferase KAT6A, both winged helices, GST fusion (KAT6A, Homo sapiens, UniProt Q92794, residues 1-181)", "technique": "protein binding microarray", "molecule type": "double-stranded DNA, one strand shown", "matrix": "in vitro", "tested at": "not given", "notes": "8-mer, flanks averaged, mean of 2 arrays, mostly near background", "relative to": "not given", "direction": "higher = stronger binding", "Target sequence (chain)": "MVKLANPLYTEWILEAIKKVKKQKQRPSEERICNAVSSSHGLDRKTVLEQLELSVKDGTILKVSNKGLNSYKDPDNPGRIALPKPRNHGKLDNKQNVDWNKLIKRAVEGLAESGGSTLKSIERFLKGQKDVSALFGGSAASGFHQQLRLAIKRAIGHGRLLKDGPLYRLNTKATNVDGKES"}
{"Sequence": "ATAATGTC", "E-score": 0.0804}
{"Sequence": "GCAGTAAA", "E-score": -0.0736}
{"Sequence": "GCCGGGCA", "E-score": 0.212}
{"Sequence": "CGGCCATC", "E-score": 0.157}
{"data": "Study 2", "target": "CCND1, cyclin fold, Cln2 fusion (human)", "technique": "yeast growth competition, sequencing", "matrix": "yeast", "notes": "weak parent motif", "relative to": "not given", "direction": "higher = stronger binding", "starting sequence": "WEE1 docking peptide (human); HKTFRKLRLFDTP; partner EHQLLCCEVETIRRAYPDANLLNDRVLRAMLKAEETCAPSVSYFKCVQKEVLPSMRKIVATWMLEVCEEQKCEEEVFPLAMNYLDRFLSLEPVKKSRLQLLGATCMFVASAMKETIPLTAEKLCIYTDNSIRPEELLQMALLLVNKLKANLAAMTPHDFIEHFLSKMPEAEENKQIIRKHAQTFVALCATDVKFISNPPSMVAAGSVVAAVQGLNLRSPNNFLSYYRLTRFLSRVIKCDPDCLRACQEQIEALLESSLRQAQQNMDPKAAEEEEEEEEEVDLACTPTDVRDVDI"}
{"Substitution": "L7H", "normalised enrichment score": -0.665}
{"Substitution": "R8Q", "normalised enrichment score": 0.744}
{"Substitution": "F4S", "normalised enrichment score": 0.0296}
{"Substitution": "T12H", "normalised enrichment score": 0.376}
{"data": "Study 3", "target": "Prothrombin, mature alpha-thrombin (F2, Homo sapiens, UniProt P00734)", "technique": "aptamer microarray, sandwich", "molecule type": "DNA with 2'F-ANA", "matrix": "in vitro", "tested at": "200 nM", "notes": "whole 15-mer aptamer, many near background", "with": "Cy3 exosite-II aptamer, 400 nM", "direction": "higher = stronger binding"}
{"Sequence": "GGTTGGTGTGGTTGG (2'F-ANA at 1 4 5 7 8 9 10 13 15)", "mean fluorescence intensity [a.u.]": 52.6}
{"Sequence": "GGTTGGTGTGGTTGG (2'F-ANA at 1 3 4 7 9 11 12 13 14 15)", "mean fluorescence intensity [a.u.]": 80.9}
{"Sequence": "GGTTGGTGTGGTTGG (2'F-ANA at 2 7 8 9 14 15)", "mean fluorescence intensity [a.u.]": 157}
{"Sequence": "GGTTGGTGTGGTTGG (2'F-ANA at 2 4 6 7 8 10 11 13 15)", "mean fluorescence intensity [a.u.]": 64.3}
{"data": "Other studies, line by line"}
{"Substance": "PhoQ, residues 284 288 289 292 302 303 SIHLQL", "target": "PhoP, residues 12 14 15 18 19 VQGLL (Escherichia coli, UniProt P23836)", "test": "Sort-seq, refers to: YFP reporter", "system": "E. coli", "conditions": "PhoQ-PhoP variant library, with: 10 µM Mg2+", "how to read": "relative to: high Mg2+ state, higher = stronger signaling", "measurement": "fold induction", "result": 19}
{"note": "Repeated from above (study 2):"}
{"Substitution": "F4S", "normalised enrichment score": 0.0296}
